Assay results pooled from the literature.
Compare with care: the assays were run in different laboratories. ± gives the spread as reported.
Method: steady-state kinetics
B1: protein (Adiantum capillus-veneris, UniProt A0A4Y6I289); chain MTDAVENKQVEFGALEVEGIKFAPSVAALGSTKQLVLGGAGFRGLEISGNLVKFTAIGIYVDEAIIPHLSPKLHGKSIEELCNNELLFEEVLAAPFEKLVRVVFLLPLTGPQYSEKVVERMGLLPNPGIKEESTKQFLEIFKPENFPPRTSLICSFTEEALKVAFMKTDDFPEDADAVIEDKWLARAFLASIIGKDGVSPLAKLSFAERMSRCL
B2: cyc1 (Streptomyces coelicolor, UniProt Q9K499); chain MHAFPHGTTATPTAIAVPPSLRLPVIEAAFPRQLHPYWPKLQETTRTWLLEKRLMPADKVEEYADGLCYTDLMAGYYLGAPDEVLQAIADYSAWFFVWDDRHDRDIVHGRAGAWRRLRGLLHTALDSPGDHLHHEDTLVAGFADSVRRLYAFLPATWNARFARHFHTVIEAYDREFHNRTRGIVPGVEEYLELRRLTFAHWIWTDLLEPSSGCELPDAVRKHPAYRRAALLSQEFAAWYNDLCSLPKEIAGDEVHNLGISLITHHSLTLEEAIGEVRRRVEECITEFLAVERDALRFADELADGTVRGKELSGAVRANVGNMRNWFSSVYWFHHESGRYMVDSWDDRSTPPYVNNEAAGEK
B3: enzyme (Corynebacterium glutamicum, UniProt Q8NT37); chain MSSGRTVPTRSHGLGKEGVSTTGASQVEFGDPELTARINDAMVQVEELLHTELSSGEDFLVDIVMHLTRAGGKRFRPMFALLASEFGEKPLSENVIKAAVVVEITHLATLYHDDVMDEASMRRGVPSANARWDNSVAILAGDILLAHASGLMSQLGTDTVAHFAETFGELVTGQMRETVGPRDTDPIEHYTNVIREKTGVLIASAGYLGAMHAGAAPEHIDALKNFGAAVGMIFQIVDDIIDIFSETHESGKTPGTDLREGVFTLPVLYALREDTPVGAELRDILTGPLEDDETVNHVLELLSQSGGRQAALDEVYRYMDIANAELDRLPDSTVKEALRNLATFTVKRVG
B4: enzyme (Thermus thermophilus, UniProt Q72J81); chain MEVKRIGVVGAGQMGSGIAQVAASAGYEVVLVDVAESFLERGLAAIRRSLGKFLEKGKITQEAHDEALGRIRTSLSLEDLKDADLIVEAIVEDEGEKRRLFERLGALAKPEAILASNTSSIPITALARYSGRPERFIGMHFFNPVPLMQLVEVIRGELTSEATRDVVVEVARRMGKTPLEVQDYPGFISNRLLMPMINEAIEALREGVATKEAIDGIMRLGMNHPMGPLELADFIGLDTCLAIMEVLHRGFGDDKYRPSPLLRRMVQAGLLGRKAGRGFYTYDEKGNKVG
B5: GTPBP3 A162P (Homo sapiens, UniProt Q969Y2); chain TRRSSGAPAPGSGATIFALSSGQGRCGIAVIRTSGPASGHALRILTAPRDLPLARHASLRLLSDPRSGEPLDRALVLWFPGPQSFTGEDCVEFHVHGGPAVVSGVLQALGSVPGLRPAEAGEFTRRAFANGKLNLTEVEGLPDLIHAETEAQRRQALRQLDGELGHLCRGWAETLTKALAHVEAYIDFGEDDNLEEGVLEQADIEVRALQVALGAHLRDARRGQRLRSGVHVVVTGPPNAGKSSLVNLLSRKPVSIVSPEPGTTRDVLETPVDLAGFPVLLSDTAGLREGVGPVEQEGVRRARERLEQADLILAMLDASDLASPSSCNFLATVVASVGAQSPSDSSQRLLLVLNKSDLLSPEGPGPGPDLPPHLLLSCLTGEGLDGLLEALRKELAAVCGDPSTDPPLLTRARHQHHLQGCLDALGHYKQSKDLALAAEALRVARGHLTRLTGGGGTEEILDIIFQDFCVGK
B6: UGT1A9 (Homo sapiens, UniProt O60656); chain GKLLVVPMDGSHWFTMRSVVEKLILRGHEVVVVMPEVSWQLGRSLNCTVKTYSTSYTLEDLDREFKAFAHAQWKAQVRSIYSLLMGSYNDIFDLFFSNCRSLFKDKKLVEYLKESSFDAVFLDPFDNCGLIVAKYFSLPSVVFARGILCHYLEEGAQCPAPLSYVPRILLGFSDAMTFKERVRNHIMHLEEHLLCHRFFKNALEIASEILQTPVTEYDLYSHTSIWLLRTDFVLDYPKPVMPNMIFIGGINCHQGKPLPMEFEAYINASGEHGIVVFSLGSMVSEIPEKKAMAIADALGKIPQTVLWRYTGTRPSNLANNTILVKWLPQNDLLGHPMTRAFITHAGSHGVYESICNGVPMVMMPLFGDQMDNAKRMETKGAGVTLNVLEMTSEDLENALKAVINDKSYKENIMRLSSLHKDRPVEPLDLAVFWVEFVMRHKGAPHLRPAAHDLTWYQYHSLDVIGFLLAVVLTVAFITFKCCAYGYRKCLGKKGRVKKAHKSKTH
B7: SUOX R529M/Y400N (Homo sapiens, UniProt P51687); chain ESTHIYTKEEVSSHTSPETGIWVTLGSEVFDVTEFVDLHPGGPSKLMLAAGGPLEPFWALYAVHNQSHVRELLAQYKIGELNPEDKVAPTVETSDPYADDPVRHPALKVNSQRPFNAEPPPELLTENYITPNPIFFTRNHLPVPNLDPDTYRLHVVGAPGGQSLSLSLDDLHNFPRYEITVTLQCAGNRRSEMTQVKEVKGLEWRTGAISTARWAGARLCDVLAQAGHQLCETEAHVCFEGLDSDPTGTAYGASIPLARAMDPEAEVLLAYEMNGQPLPRDHGFPVRVVVPGVVGARHVKWLGRVSVQPEESYSHWQRRDNKGFSPSVDWETVDFDSAPSIQELPVQSAITEPRDGETVESGEVTIKGYAWSGGGRAVIRVDVSLDGGLTWQVAKLDGEEQRPRKAWAWRLWQLKAPVPAGQKELNIVCKAVDDGYNVQPDTVAPIWNLMGVLSNAWHRVHVYVSP
B8: enzyme R108A (Sinorhizobium meliloti, UniProt Q92UV7); chain MTNAEVTIAVRHEPMRIAGRLVDTDDRVEVRYPWNDTVVGTVPAGRAEHAREAFAIAAAYQPKLTRYERQKILLATAEALAARKEEISDVITLELGISKADSLYEVGAAFDVFTLAGQMCIRDDGEIFSCDLTPHGKARKIFTMREPLTAISAITPFNHPLNMVAHKVAPAIATNNCVVVKPTELTPMTALLLADILYEAGLPPEMLSVVTGWPADIGMEMITNPHVDLVTFTGSVPVGKLIAANAHYKRQVLELGGNDPLIILNDLSDDDLARAADLAVAGATKNSGQRCTAVKRILCQESVADRFVPLVLERAKRLRFGDPMDRSTDLGTVIHEKAAALFEERVMRAAEEGADILYHPGRSGALLPPIVVDRVPHQSDLVLEETFGPIIPIVRVPDDDDATITLSNSTAFGLSSGVCTNDYRRMQKYIAGLKVGTVNIWEVPGYRIEMSPFGGIKDSGNGYKEGVIEAMKSFTNVKTFSLPWP
B9: GulLO5 (Arabidopsis thaliana, UniProt O81030); chain TPPEDPVKCVSGNTNCIVTNSLGAFPDRSTCRAANVAYPTTEAELVSIVAAATKAGRKMRVTTRYSHSIPKLTCTDGNDGLFISTKFLNHTVQADAKAMTLTVESGVTLRQLIAEAAKVGLALPYAPYWWGVTVGGMMGTGAHGSSLWGKGSAVHDYVTEIRMVSPGSVNDGFAKIRVLSETTTPNEFNAAKVSLGVLGVISQVTFELQPMFKRSLKYVMRNDLDFNDEALTFGKKHEFADFVWLPSQGKVVYRMDDRVAVNTLGNGLYDFFPFRSQLSAVLATTRSSEETQETLRDAHGKCVTATTISSTLFSTSYGLTNNGITFTGYPVIGSQNRMMSSGSCLDGLEDKLTSACAWDSRVKGVFYHQTTFSIPLTQVKSFINDIKSLLKIDSKSLCGLELYYGILMRYVTSSPAYLGKETEAIDFDITYYRANDPLTPRLYEDFIEEIEQIALLKYNALPHWGKNRNLAFDGVIKKYKNAPAFLKVKESYDPNGLFSSEWTDQILGIKGNPTIVKDGCALEGLCICSDDAHCAPSKGYLCRPGKVYKEARVCTHVPK
Sequence of UniProt P49419 (whole entry, looked up): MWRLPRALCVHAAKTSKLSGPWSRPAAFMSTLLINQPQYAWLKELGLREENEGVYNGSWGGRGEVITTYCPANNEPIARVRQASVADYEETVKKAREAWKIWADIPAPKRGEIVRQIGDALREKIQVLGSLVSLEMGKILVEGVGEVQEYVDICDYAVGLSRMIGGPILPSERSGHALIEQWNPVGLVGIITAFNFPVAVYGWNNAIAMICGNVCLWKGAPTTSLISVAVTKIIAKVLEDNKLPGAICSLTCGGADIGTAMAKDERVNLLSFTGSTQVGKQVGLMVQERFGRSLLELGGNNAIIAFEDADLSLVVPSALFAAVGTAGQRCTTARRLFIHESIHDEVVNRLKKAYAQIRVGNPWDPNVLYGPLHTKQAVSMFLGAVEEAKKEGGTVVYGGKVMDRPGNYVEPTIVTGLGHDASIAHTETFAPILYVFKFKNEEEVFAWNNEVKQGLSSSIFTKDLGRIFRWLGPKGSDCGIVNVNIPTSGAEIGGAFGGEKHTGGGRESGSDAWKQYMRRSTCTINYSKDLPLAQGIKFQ
Sequence of UniProt Q9UYB2 (whole entry, looked up): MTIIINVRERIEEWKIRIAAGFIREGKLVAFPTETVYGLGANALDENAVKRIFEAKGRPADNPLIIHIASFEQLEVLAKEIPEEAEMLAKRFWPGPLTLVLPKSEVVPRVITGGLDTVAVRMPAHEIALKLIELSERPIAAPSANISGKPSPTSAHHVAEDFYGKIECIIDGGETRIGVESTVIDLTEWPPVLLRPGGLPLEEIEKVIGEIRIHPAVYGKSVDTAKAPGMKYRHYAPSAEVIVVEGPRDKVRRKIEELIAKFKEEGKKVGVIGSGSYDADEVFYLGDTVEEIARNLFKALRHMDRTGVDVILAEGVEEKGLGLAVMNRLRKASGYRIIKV

Substance = AphC (Rhodococcus jostii, UniProt Q0S9X1); substrate = Cc1ccc(O)c(O)c1; conditions = pH 8, 25 °C, apparent, with: O2; quantity = kcat; result = 0.293 s⁻¹
Substance = B1 (protein); substrate = O=C(/C=C/c1ccc(O)cc1)c1c(O)cc(O)cc1O; quantity = kcat; result = 157 ± 12.7 s⁻¹
Substance = B2 (cyc1); substrate = CC(C)=CCC/C(C)=C/CC/C(C)=C/CO[P@@](=O)(O)OP(=O)(O)O; conditions = pH 6.5, 30 °C, with: MgCl2 10 mM; quantity = kcat; result = 0.084 ± 0.001 s⁻¹
Substance = Sua5 (Pyrococcus abyssi, UniProt Q9UYB2); substrate = C[C@@H](O)[C@H](N)C(=O)O; conditions = pH 8, 50 °C, KCl 35 mM, with: ATP, Mg2+, Mn2+, L-threonine 3–150 µM; quantity = kcat; result = 0.054 ± 0.002 s⁻¹
Substance = B3 (enzyme); substrate = C=C(C)CCO[P@@](=O)(O)OP(=O)(O)O; conditions = pH 7.6, 37 °C; quantity = kcat; result = 0.01 s⁻¹
Substance = protein (Klebsiella pneumoniae, UniProt A6T9E8); substrate = NC(=O)N[C@@H]1NC(=O)NC1=O; conditions = pH 7.5, 25 °C, NaCl 10 mM; quantity = kcat; result = 238 ± 19 s⁻¹
Substance = B4 (enzyme); substrate = NC(=O)C1=CN([C@@H]2O[C@H](COP(=O)(O)OP(=O)(O)OC[C@H]3O[C@@H](n4cnc5c(N)ncnc54)[C@H](O)[C@@H]3O)[C@@H](O)[C@H]2O)C=CC1; conditions = pH 7, 65 °C, cofactor varied; quantity = kcat; result = 20.3 s⁻¹
Substance = B5 (GTPBP3 A162P); substrate = Nc1nc2c(ncn2[C@@H]2O[C@H](COP(=O)(O)OP(=O)(O)OP(=O)(O)O)[C@@H](O)[C@H]2O)c(=O)[nH]1; conditions = pH 8, 37 °C, KCl 300 mM; quantity = kcat; result = 0.0155 ± 0.002 s⁻¹
Substance = TIIAS (Salvia miltiorrhiza, UniProt A0A8K1XH31); substrate = C[C@H]1COC2=C1C(=O)C(=O)c1c2ccc2c1CCCC2(C)C; conditions = pH 6.5, 20 °C; quantity = kcat; result = 0.6 ± 0.03 s⁻¹
Substance = B6 (UGT1A9); substrate = CCCOC(=O)c1ccc(O)cc1; conditions = pH 7.4, 37 °C; quantity = Km; result = 152 µM
Substance = ALDH7A1 (Homo sapiens, UniProt P49419); substrate = N[C@@H](CCCC=O)C(=O)O; conditions = pH 8, with: NAD+ 2.5 mM, pyrophosphate 50 mM; quantity = kcat; result = 0.38 ± 0.02 s⁻¹
Substance = B7 (SUOX R529M/Y400N); substrate = O=[N+]([O-])O; conditions = pH 7, 25 °C, with: dithionite-reduced methyl viologen; quantity = kcat; result = 0.82 s⁻¹
Substance = B8 (enzyme R108A); substrate = NC(=O)c1ccc[n+]([C@@H]2O[C@H](COP(=O)(O)OP(=O)(O)OC[C@H]3O[C@@H](n4cnc5c(N)ncnc54)[C@H](O)[C@@H]3O)[C@@H](O)[C@H]2O)c1; conditions = pH 7.5, 30 °C, cofactor varied; quantity = kcat; result = 0.051 ± 0.001 s⁻¹
Substance = B9 (GulLO5); substrate = O=C1O[C@H]([C@@H](O)CO)[C@H](O)[C@@H]1O; conditions = pH 8, 25 °C, apparent, with: cytochrome c 121 µM, FAD 100 µM; quantity = kcat; result = 0.005 s⁻¹
